Experimental data pooled from the literature.
Each line is one published result; not all experiments were run side by side. Values joined by “and” are separate records of one study, mostly repeats; a detail may differ. ± gives the spread as reported.

CCN1[C@@H](C(=O)NC23CCC(C(=O)O)(CC2)CC3)[C@H](c2cccc(Cl)c2F)[C@]2(C(=O)Nc3cc(Cl)ccc32)C12CCCCC2  Anemia incidence (patients with advanced solid tumours; oral, dose not given, all doses): 52.4%
COc1cc2c(Oc3ccc4[nH]c(C)cc4c3F)ccnc2cc1OCC1(N)CC1  grade 1 or 2 Nausea (paediatric recurrent refractory sarcoma; 8 mg/kg): 6.7%
CN(C)CCC(c1ccccc1)c1ccccn1 (stereo not drawn)  IC50 (Plasmodium falciparum; 7G8): 5010 nM
Clc1ccc(Cl)c(-c2cc(Cl)c(Cl)cc2Cl)c1  literature range factor (PDMS-water partitioning; PCB compilation; relative to: maximum over minimum K): 1.4
O=C(O)CCCOc1ccc(F)cc1-c1cc(-c2ccccc2C(F)(F)F)n(-c2ccccc2)n1  blood chemistry (measured: CRE; Crl:CD(SD) rats, female, blood; iv, 25 µg/kg, 14 days): 0.38 ± 0.02 mg/dL
C=C(CN(C(=O)c1c(C(F)F)nn(C)c1F)C1CC1)c1ccc(Cl)cc1Cl  mortality (static acute toxicity test; zebrafish (Brachydanio rerio); 1.00 mg a.i./L, 72 h): 50%
CC[N+](CC)(CC)CCOc1ccc(/C=C/c2ccccc2)cc1  IC50 (Plasmodium falciparum; 3D7): 794 nM
CN[C@H]1CC[C@@H](c2ccc(Cl)c(Cl)c2)c2ccccc21  elimination rate constant (CD-1 mouse, male, plasma; intraperitoneal, 3 mg/kg): 7.87e-05 s⁻¹
CN1CC[C@@H](c2c(O)cc(O)c3c(=O)cc(-c4ccc(C(F)(F)F)cc4Cl)oc23)[C@@H]1CO  patients with adverse event (measured: Dyspnea; relapsed or refractory haematological malignancies; oral, dose not given, all arms): 15%
CC(C)n1c(C2CCNCC2)nc2c([N+](=O)[O-])c(Br)c(Br)cc21  adverse events causing interruption (measured: Hyponatremia; AML patients; 125 mg): 2%
CC(C)[C@@H]1NC(=O)CNC(=O)[C@H](CC(N)=O)NC(=O)[C@H](CCCNC(=N)N)NC(=O)[C@H](Cc2ccc(O)cc2)NC(=O)[C@H](C(C)C)NC(=O)[C@@H](NC(=O)[C@@H](NC(=O)[C@H](CC(N)=O)NC(=O)[C@H](Cc2c[nH]c3ccccc23)NC(=O)[C@H](C)NC(=O)[C@H](Cc2ccccc2)NC(=O)CN)C(C)C)CSSC[C@@H](C(=O)N[C@@H](Cc2cnc[nH]2)C(=O)N[C@@H](CCCNC(=N)N)C(=O)N[C@@H](CCCNC(=N)N)C(=O)N[C@@H](C)C(=O)N[C@@H](CC(N)=O)C(N)=O)NC(=O)[C@H](C(C)C)NC(=O)[C@H](CCCNC(=N)N)NC1=O  eosinophils (ICR mice, blood; intraperitoneal, 5 mg/kg, day 5): 2.15 ± 0.11%
Clc1ccc(-c2cc(Cl)c(Cl)cc2Cl)cc1Cl  log K(PDMS-water) (fresh water; 20 °C): 6.04 ± 0.05
CO[C@H]1C[C@@H]2CC[C@@H](C)[C@@](O)(O2)C(=O)C(=O)N2CCCC[C@H]2C(=O)O[C@H]([C@H](C)C[C@@H]2CC[C@@H](OC(=O)NCCOCCOCCOCCOCCOCCOCCOCCOCCC(=O)N3CCc4cc(Cn5nc(-c6ccc7oc(N)nc7c6)c6c(N)ncnc65)ccc4C3)[C@H](OC)C2)C[C@@H](O)[C@H](C)/C=C(\C)[C@@H](O)[C@@H](OC)C(=O)[C@H](C)C[C@H](C)/C=C/C=C/C=C/1C  decreased appetite leading to dose reduction (patients with advanced solid tumours; intravenous, 10 mg weekly, grade 3 or higher): 0%
COc1cccc(Oc2ccccc2NC(=O)CNC(=O)c2cccc3ccccc23)c1  urea nitrogen/creatinine ratio (esterase-deficient SCID mice, male; oral, 15 mg/kg/day, 14 days, toxicity study): 300 and 180 and 185
[Cl][212Pb][Cl]  tissue uptake (athymic mice, C4-2 xenograft, heart; intravenous, 2 h, 212Pb-labelled): 0.98 ± 0.3 %ID/g

Some of these lines once more:
CN1CC[C@@H](c2c(O)cc(O)c3c(=O)cc(-c4ccc(C(F)(F)F)cc4Cl)oc23)[C@@H]1CO  patients with adverse event (measured: Dyspnea; relapsed or refractory haematological malignancies; oral, dose not given, all arms): 15%
[Cl][212Pb][Cl]  tissue uptake (athymic mice, C4-2 xenograft, heart; intravenous, 2 h, 212Pb-labelled): 0.98 ± 0.3 %ID/g
